# Measured values from different studies.
# Every numbered part comes from another study and shows a few of its results, in no order.

# Series 1 — method: RNA Bind-n-Seq; form: RNA; medium: in vitro; tested at: 200 nM; setting: whole 134-nt RNA, ends assumed; added: 150 mM KCl; baseline: input library; direction: higher = stronger binding
# Target: Fragile X messenger ribonucleoprotein 1, C-terminal low-complexity region (Fmr1, Mus musculus, UniProt P35922)
# Constant ends, left off below: GGGAGUUCUACAGUCCGACGAUC … UGGAAUUCUCGGGUGUCAAGG
Sequence,log2 enrichment
UGGCCCUGGUGGCAUGCGGGGAGGAAGAGAUGGCCUCAUGGAUCGUGGUGGUCCCGGUGGAAUGUUCAGAGGUGGCCGUGGUGGAGACAG,-0.111
CUGUGCUACACAUCGUAUGUACCGAAUCGGGUUUUUUUGGUUUUUUUGGGUUUUUUUGGGGAAAGUAUUAUGUUACGCCGUUCGGAUCUG,-0.822
UGGGAGGUGGAUUUUGUUUAUUUUUUUAGCUCAUUUCCAAGGGUGGGAAUUUUUUUUUAAUAUGUGUCAUGAAUAAAGUUGUUUUUGAAA,0.0508
CUGUGCUACACAUCGUAUGUACCGAAUCGGGGAAAGGGGUUUUUUUGGGGAAAAAAAGGGGAAAGUAUUAUGUUACGCCGUUCGGAUCUG,-0.226
UAACUUUAGAGAAGGAUCUGAUGGAUAUGGCAGUGGACGUGGAUUUGGGGAUGGCUAUAAUGGGUAUGGAGGAGGACCUGGAGGUGGCAA,0.198
AGUCCUGUGCUACACAUCGUAUGUACCGAAUCGGGCCCCCGGGCCCCCGGCCCCCGGAAAGUAUUAUGUUACGCCGUUCGGAUCUGCACU,-0.395
AAGUCCUGUGCUACACAUCGUAUGUACCGAAUCGGUUUUUGGAAAAAAAGGAAAGGAAAGUAUUAUGUUACGCCGUUCGGAUCUGCACUU,-1.14
AGUCCUGUGCUACACAUCGUAUGUACCGAAUCGGAAAAGGGGAAAAGGGAAAAGGGGAAAGUAUUAUGUUACGCCGUUCGGAUCUGCACU,0.0708
ACCAUGCAAGUGGGCAUCUUUGGGAAGUGGGGCAAGGGGGGGAUAGGGAGGGGGGUAACACUUUGGGAACAGGUGGUCCCAGGUCGUUUC,0.735
UGGGAGGUGGAUUUUGUUUAUUUUUUUAGCUCAUUUCCAGGGGUGGGAAUUUUUUUUUAAUAUGUGUCAUGAAUGAAGUUGUUUUUGAAA,0.237
AAGUCCUGUGCUACACAUCGUAUGUACCGAAUCGGGAAAAAGGGAGGGAAAAAGGGAAAGUAUUAUGUUACGCCGUUCGGAUCUGCACUU,0.477
UUCCUCAAGUCCUGUGCUACACAUCGUAUGUACCGAAUCGGCGGCGGCGGGAAAGUAUUAUGUUACGCCGUUCGGAUCUGCACUUCCAGC,-0.0183
AAGUCCUGUGCUACACAUCGUAUGUACCGAAUCGGGGUUUUGGUUUUGGGUUUUGGGAAAGUAUUAUGUUACGCCGUUCGGAUCUGCACU,-0.243
GUCCUGUGCUACACAUCGUAUGUACCGAAUCGUGUGUGUGUGUGUGUGUGUGUGUGUGAAAGUAUUAUGUUACGCCGUUCGGAUCUGCAC,0.673

# Series 2 — method: competition protein-binding microarray; form: double-stranded DNA, one strand shown; medium: in vitro; tested at: 2 µM; added: Cbf1 competitor, 0.05 µM; direction: higher = stronger binding; constant ends, left off below: … GTCTTGATTCGCTTGACGCTGCTG
# Target: Phosphate system positive regulatory protein PHO4, full length, GST-tagged (PHO4, Saccharomyces cerevisiae, UniProt P07270, residues 1-312)
# Setting: whole 60-bp probe, lowest competitor level
# Construct (chain): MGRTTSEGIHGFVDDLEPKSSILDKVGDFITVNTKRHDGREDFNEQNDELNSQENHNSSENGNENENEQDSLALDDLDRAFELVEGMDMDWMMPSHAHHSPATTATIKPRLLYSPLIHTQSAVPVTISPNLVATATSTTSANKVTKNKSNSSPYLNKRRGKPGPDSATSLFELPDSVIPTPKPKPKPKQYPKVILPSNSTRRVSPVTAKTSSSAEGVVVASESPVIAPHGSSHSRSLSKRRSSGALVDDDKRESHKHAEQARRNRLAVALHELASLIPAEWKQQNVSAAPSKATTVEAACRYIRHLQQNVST
Sequence,fluorescence intensity
ATACTTTCATCACATCAGGTGGTTTAGGTACGATGG,5530 a.u.
GCACCCGGCCTGCGCTGCGTGCAATGACTGCGGGCG,6790 a.u.
GGGACAACGGCTTGCTAGGTGCATTTACTTCATTCA,3450 a.u.
ACCCTGAGAATTGGCACCGTGACGGTATTGATTCCA,6260 a.u.
GTCCGATATGCCCGGAACGTGCTTTCCATTGGTGCA,14100 a.u.
CTTTCCCGATCTTGTCACGTCACTTTAGCACATTTG,5380 a.u.
GTCTTGTCTCATTGTCACAAGACTTTCCCCACTTCA,4280 a.u.
ATTTGGACAAGGTTCCACGTGAGTATGTTCGTTATT,14700 a.u.
TAAGGTCATTAAGAACCCGTGACTCGTATCACCAAA,5740 a.u.
ACCAAAGGGTTCTTGCGGGTGTAGATCCCAAGTCCA,3090 a.u.
GTCTTGTCTCATTGCTATGTGGGTGTCCCCACTTCA,5060 a.u.
ACCTACCCGCTTCATCACATGAACACCGCTTCCTGA,5680 a.u.
AGCAAGTAATCTTTGCACGTGGCCGGACGTAGATGA,17100 a.u.
CCTAGGACTTTGAAGGGCGTGCTAAGTGGGGAGCCG,7970 a.u.
ATTGGTGATATTGTTGACGTGCTTTACAAACGGAAT,5910 a.u.
CGGATATTCTTTCTTCACGTGCATCTACTGCTTTTT,14300 a.u.
GAAGTCTCCAAACTCCACGTGTTGGTATTTCTCGTA,15800 a.u.
GTTTGGTGCAGTGGCCACGAGGTGACTGCGACAGTC,10800 a.u.
TCTGATTGTGACAGCCACGTGGCCGGCTGAGTGTAA,18300 a.u.
AAATTACTAAGTTGAAACGTGGGTGACGCCGTATGA,14400 a.u.
TGTTTGCTTGATCCACACGTGTATATAAAAATGTTT,17200 a.u.
CGCTGGAAAACCGCCCACGTGGGAAGAAGCCCTGGC,17900 a.u.
CATTAGCGTCTCTTTCACGTGCGGTCTGAGAACTAC,14600 a.u.
GTCTTGTCTCATTTTCACGTGGTATTCCCCACTTCA,11500 a.u.
AAAGCGGTAATTTGCGGCGTGGGTGCAGATATCTAT,7880 a.u.

# Series 3 — method: protein-binding microarray; form: double-stranded DNA, one strand shown; medium: in vitro; tested at: 250 nM; setting: 60-bp whole probe; added: salmon DNA 0.4 mg/ml; baseline: random background probes; direction: higher = stronger binding; constant ends, left off below: GCCTAGCAC … GTCTTGATTCGCTTGACGCTGCTG
# Target: Interferon regulatory factor 7, full length, phosphomimetic (IRF7, Homo sapiens, UniProt Q92985, residues 1-503, S101K/S471D/S472D/S475D/S476D/S477D/S483D/S484D/S487D)
# Chain of UniProt Q92985 (whole entry, unmodified, looked up): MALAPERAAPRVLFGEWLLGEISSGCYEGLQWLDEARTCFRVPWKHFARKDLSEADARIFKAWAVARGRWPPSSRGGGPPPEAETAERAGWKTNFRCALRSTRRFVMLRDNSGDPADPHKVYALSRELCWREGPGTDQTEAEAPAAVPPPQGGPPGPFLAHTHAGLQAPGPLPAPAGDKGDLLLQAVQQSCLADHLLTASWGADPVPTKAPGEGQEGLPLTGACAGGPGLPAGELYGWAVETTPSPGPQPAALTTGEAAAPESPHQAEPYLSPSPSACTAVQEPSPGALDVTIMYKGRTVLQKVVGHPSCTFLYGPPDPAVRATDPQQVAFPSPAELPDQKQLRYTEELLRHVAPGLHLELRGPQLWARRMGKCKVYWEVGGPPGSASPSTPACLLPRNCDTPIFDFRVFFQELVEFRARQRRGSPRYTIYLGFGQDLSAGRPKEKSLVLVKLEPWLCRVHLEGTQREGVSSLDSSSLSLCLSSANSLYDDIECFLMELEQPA
Sequence,log fluorescence
GACGGACTGAGTTTCGAGACGTGCTAG,3.03 z-score
GACGGTATCGGACTGGGAACGTGCTAG,-0.211 z-score
TTATTTAGGATAGAACTATAGTGCTAG,0.771 z-score
GACGGTTTCAGTTCCGGGACGTGCTAG,3.65 z-score
TTAGGTATCCTTCTCCTTCAGTGCTAG,0.174 z-score
GACGAACTGAGTTTCGACACGTGCTAG,2.22 z-score
AGATGTGTCTTAAATAGGGCAGTGCTA,-0.208 z-score
TTAGGTTTCGGGACTGGGTTAGTGCTA,3.78 z-score
GACGAACTGAGTATGGAGACGTGCTAG,-0.55 z-score
TTAGATTTCAGTATCGATCAGTGCTAG,0.551 z-score
TTAGATCGCAGTCTCGATTAGTGCTAG,1.14 z-score
GACGGATTCGGGACTGGGGACGTGCTA,0.297 z-score
TCAACAATGATGTTTTGAACTGTGCTA,-0.437 z-score
TTCTCTCCCATTCTGAATTCGTGCTAG,1.14 z-score
TTAGGCATCGACTTTCGGTTAGTGCTA,1.26 z-score
GGCTTTGACTCTTTCTGTCAGTGCTAG,0.00758 z-score
ATGAAATGCCACACACACACGTGCTAG,-0.255 z-score
GGTCTTTCCACTTTCTTTTGGTGCTAG,2 z-score
TTAGGACTGGGTTTTGGTTAGTGCTAG,0.864 z-score
TCATTTTTTTTTTTTGTACTGTGCTAG,0.686 z-score
TTAGCTTTCCTTATCCTTTAGTGCTAG,0.902 z-score
TTAGGTTTCCTACTCCTTTAGTGCTAG,1.45 z-score
GACGGGCTGGGTATCGGGACGTGCTAG,-0.862 z-score
TCAAACTTTTTTCTGATACTGTGCTAG,0.159 z-score
GACGGTATCAGTTTCGAGACGTGCTAG,4.08 z-score

# Series 4 — method: RNA Bind-n-Seq; form: RNA; medium: in vitro; tested at: 365 nM; baseline: no-protein control; direction: higher = stronger binding
# Target: RNA binding protein fox-1 homolog 2, RRM domain, GST-SBP tag (RBFOX2, Homo sapiens, UniProt O43251-10, residues 100-194)
# Setting: natural RNA segment, single round, ends assumed
# Constant ends, left off below: GGGAGUUCUACAGUCCGACGAUC … UGGAAUUCUCGGGUGCCAA
# Target sequence (chain): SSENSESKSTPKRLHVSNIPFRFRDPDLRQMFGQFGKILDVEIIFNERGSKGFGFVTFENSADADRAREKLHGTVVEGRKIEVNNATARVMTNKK
Sequence,RBNS enrichment (R)
UUAGGUGCGAGGCAUCACCUUCUCACAAGUGUUUAGUUUCUUUUAACCACAAGUAUCAUUCUUGGGUGAUAAUAUAGUUUCAUUCUACUUAGGGAUUGUUUAGAAAACAA,0.326
GGGGGACAAGGAGGGUAAGAAAACCACUGCGUGUCCGGGCAUAAUUGAAGCUUGCUCUCCCUAGAUGGGUGGUCUGCUCUCGGUCCUUCUCUGCUCUCUAUAAAAUGGUG,1.34
UAUAUCAAAUUGUGCACUUUAAAUAUGUGCAAUUUGUUGUACAUCAGUGAUACCUCAAUAAAUCUGUAAAAAAAGAAAAAUUAAACCUUGUAUUAAAAUAAAUAGCAAAC,0.894
UCACUGGGAGAUUUUGUAUAUAUUCUUUUAUUAUUAGAUUGAGUUGGGUGUGGGGAAAAAUUUUUUUCUGAAGGCUCAAAAGUGGUUUCCUAAAAGUGAGCCACUAUCAG,0.509
UGCAGCUGGGCCCAGAACACCCAUGAUGAGGUUCACUGCGUCUACCCUGCACCUCGCACAGAACCAAGAGCCACCAGCCUCCUGAUGGCAGGGGCCUAGCCCUGGGCAUA,0.777
CUGCUUUCUUCUUCCGGCUGGUACAGAAUCUGUGUCCAUCAUUUUUCACUACAGGUCUUGUUAAAAUUCUUUGCAGCACUUCGUGUCCCCUCACGUCCCAUGUGCUCAGA,0.463
UGUCACUAAAGCGGGCCUUUUGAUAUAUUAAGUUUUUUAAAAGCAAAACAAGUUUAGAUUUUAAUCAGAUUUGUAGGGUUUCUAACUUUACAGAAUUGCCUGUUUGUUUC,0.893
AGUUACUAGCCCGUAGCUCUUGGGCUGCUCCACAUGGCUCCUUACGGCCGGCAAGAAUGGAUGUAAAAAUAUCUUGCUGCUUACAUCCAAAUUGCUGGUGGAUAUGGGGC,0.904
GCAACAGCAGCAGCAGCAGCAGCAGCAGCAGCAGAGACCUCUCCACUUUCCCUUAGCCCCUCUGCUGGGUAGAGAGGCACUUUCAGGGACUUCCCUCCAGCUGCCUCUUC,0.428
CCCCGAGGCCCAAAGAUAAACUGCUACAAUGCUCCAGAACAAUCUUUUCUCUCCUCCCCAGAGGCCCCAUGGGAUGCCGCGUGCUGUUGGGUUUGGGCUAAGAUCUAAGA,0.491
UGGAUCCAUUUCCCUGGUCUUGGCCUCACUCUCAUGCAGGCUUUCCUCUUGUGUUGGCAAGAUGGCUGCCAACUCUUGGCAAUUCAUACAUCCUUGUUUCUGUCUGGUAG,0.497
CAAAGGACAUCCACAUCAGUUGGAAGACUUUGAGUUUUGUUCUUAGGAAACCCACUUUAGUUGAAUGUGUUAAGUGAAAUACUUGUACUUCCCUCCCCCUCUGUCAACUG,0.792

# Excerpt of the above (series 2):
Sequence,fluorescence intensity
GTCTTGTCTCATTGCTATGTGGGTGTCCCCACTTCA,5060 a.u.
ATACTTTCATCACATCAGGTGGTTTAGGTACGATGG,5530 a.u.
TAAGGTCATTAAGAACCCGTGACTCGTATCACCAAA,5740 a.u.
GTTTGGTGCAGTGGCCACGAGGTGACTGCGACAGTC,10800 a.u.
